Results pooled from the literature.
“And” joins repeats or separate records; there may be more than shown.

Compound | assay | system | conditions | endpoint | result
CC[C@H](C)[C@H](NC(=O)[C@H](CCC(N)=O)NC(=O)[C@@H](NC(=O)[C@@H]1CCCN1[C@@H]1CN(C(=O)[C@H](CCCCN)NC(=O)[C@H](CC(N)=O)NC(=O)[C@@H](NC(=O)[C@@H](NC(=O)[C@H](CCC(N)=O)NC(=O)[C@@H](N)C(C)C)[C@@H](C)CC)[C@@H](C)CC)CC[C@H]1NS(=O)(=O)c1ccc(C)cc1)C(C)C)C(=O)N[C@H](C(=O)N[C@@H](Cc1ccc(O)cc1)C(=O)N[C@@H](CCCCN)C(N)=O)C(C)C | LC-MS | pronase digest | 200 µM, 30 min, pH 7.5, 37 °C, with: pronase 2.5 µg/mL | remaining intact peptide | 84%
C#Cc1c(F)ccc2cc(O)cc(-c3ncc4c(N5CC6CCC(C5)N6C(=O)OC(C)OC(=O)CCC5CCCC5)nc(OC[C@@]56CCCN5C[C@H](F)C6)nc4c3F)c12 (stereo partly drawn) |  | simulated gastric fluid | 1 µM, 30 min, 37 °C | remaining prodrug | 102%
C=CCN1CCC23c4c5ccc(OC(=O)c6ccc(NC(=O)OC(C)(C)C)cc6)c4OC2C(=O)CCC3(O)C1C5 (stereo not drawn) |  | rat plasma | 0.5 h, no inhibitor | remaining compound | 1.3%
Cc1cc(-c2ccc3ccccc3c2)nnc1NCCN1CCN(C)CC1 |  | rat liver microsomes | 60 min | remaining compound | 65.4%
C#Cc1c(F)ccc2cc(O)cc(-c3ncc4c(N5CC6CCC(C5)N6C(=O)OC(C)OC(=O)c5ccccc5)nc(OC[C@@]56CCCN5C[C@H](F)C6)nc4c3F)c12 (stereo partly drawn) |  | simulated gastric fluid | 1 µM, 30 min, 37 °C | remaining prodrug | 99.6%
CC(C)[C@@H]1NC(=O)CNC(=O)[C@H](CC(N)=O)NC(=O)[C@H](CCCNC(=N)N)NC(=O)[C@H](Cc2ccc(O)cc2)NC(=O)[C@H](C(C)C)NC(=O)[C@@H](NC(=O)[C@@H](NC(=O)[C@H](CC(N)=O)NC(=O)[C@H](Cc2c[nH]c3ccccc23)NC(=O)[C@H](C)NC(=O)[C@H](Cc2ccccc2)NC(=O)CNC(=O)[C@H](CCCCN)NC(=O)[C@H](Cc2ccccc2)NC(=O)[C@H](Cc2ccccc2)NC(=O)[C@H](CCCCN)NC(=O)OCC2c3ccccc3-c3ccccc32)C(C)C)CSSC[C@@H](C(=O)N[C@@H](Cc2c[nH]cn2)C(=O)N[C@@H](CCCNC(=N)N)C(=O)N[C@@H](CCCNC(=N)N)C(=O)N[C@@H](C)C(=O)N[C@@H](CC(N)=O)C(N)=O)NC(=O)[C@H](C(C)C)NC(=O)[C@H](CCCNC(=N)N)NC1=O | HPLC | mouse mammary gland homogenate | 2560 µM, 10.00 h, 37 °C, 50 mg/mL tissue | remaining peptide | 62.6% and 57.8% and 64%
C=CCN1CCC23c4c5ccc(OC(=O)c6ccc(N)cc6)c4OC2C(=O)CCC3(O)C1C5 (stereo not drawn) |  | rat plasma | 0.5 h, with: digitonin 100 µM | remaining compound | 3.2% and 3.6%
C[C@H](NC(=O)CNC(=O)[C@@H]1CCCN1C(=O)[C@H](CO)NC(=O)CNC(=O)[C@H](CO)NC(=O)[C@H](C)NC(=O)[C@H](CC(N)=O)NC(=O)[C@H](C)NC(=O)[C@H](CO)NC(=O)[C@H](C)NC(=O)[C@H](CO)NC(=O)[C@@H]1CCCN1C(=O)[C@H](Cc1ccccc1)NC(=O)[C@H](C)NC(=O)[C@H](CO)NC(=O)[C@@H]1CCCN1C(=O)[C@H](Cc1ccccc1)NC(=O)[C@@H](NC(=O)[C@H](CC(=O)O)NC(=O)[C@@H](N)CO)[C@@H](C)O)C(=O)N[C@@H](CCCNC(=N)N)C(=O)N[C@@H](CO)C(=O)O |  | 50% mouse plasma | 40 min | remaining peptide | 1.02%
Cc1nnc(-c2ccc(CC(=O)NCCCC[C@H](NC(=O)c3ccc(OCc4ccc(B(O)O)cc4)c(-c4nc5ccccc5c(=O)[nH]4)c3)C(=O)NCC(=O)NCC(=O)NCC(=O)N[C@@H](Cc3ccccc3)C(=O)N[C@@H](Cc3ccccc3)C(=O)O)cc2)nn1 | UPLC-MS/MS | human serum | 100 µM, 2 h, 37 °C | remaining compound | 84.7%

Repeated from above:
Compound | assay | system | conditions | endpoint | result
CC(C)[C@@H]1NC(=O)CNC(=O)[C@H](CC(N)=O)NC(=O)[C@H](CCCNC(=N)N)NC(=O)[C@H](Cc2ccc(O)cc2)NC(=O)[C@H](C(C)C)NC(=O)[C@@H](NC(=O)[C@@H](NC(=O)[C@H](CC(N)=O)NC(=O)[C@H](Cc2c[nH]c3ccccc23)NC(=O)[C@H](C)NC(=O)[C@H](Cc2ccccc2)NC(=O)CNC(=O)[C@H](CCCCN)NC(=O)[C@H](Cc2ccccc2)NC(=O)[C@H](Cc2ccccc2)NC(=O)[C@H](CCCCN)NC(=O)OCC2c3ccccc3-c3ccccc32)C(C)C)CSSC[C@@H](C(=O)N[C@@H](Cc2c[nH]cn2)C(=O)N[C@@H](CCCNC(=N)N)C(=O)N[C@@H](CCCNC(=N)N)C(=O)N[C@@H](C)C(=O)N[C@@H](CC(N)=O)C(N)=O)NC(=O)[C@H](C(C)C)NC(=O)[C@H](CCCNC(=N)N)NC1=O | HPLC | mouse mammary gland homogenate | 2560 µM, 10.00 h, 37 °C, 50 mg/mL tissue | remaining peptide | 62.6% and 57.8% and 64%
